Results of several laboratories.
A part holds a random share of what one study measured.

Block 1 — method: Sort-seq; refers to: YFP reporter; medium: E. coli; setting: PhoQ-PhoP variant library; together with: 10 µM Mg2+; reference: high Mg2+ state; direction: higher = stronger signaling
Molecule: PhoQ, residues 284 288 289 292 302 303 SLANKL
PhoP, residues 12 14 15 18 19 TQALL (Escherichia coli, UniProt P23836) — fold induction: 17.2.
PhoP, residues 12 14 15 18 19 QYFSL (Escherichia coli, UniProt P23836) — fold induction: 3.59.
It gave 2.09 for fold induction (PhoP, residues 12 14 15 18 19 NYFRM (Escherichia coli, UniProt P23836)).

Block 2 — method: protein binding microarray; molecule type: double-stranded DNA, one strand shown; medium: in vitro; concentration: not given; reference: not given; direction: higher = stronger binding
Target: Histone acetyltransferase KAT6A, winged helix 2, GST fusion (KAT6A, Homo sapiens, UniProt Q92794, residues 85-181)
Setting: 8-mer, flanks averaged, mean of 2 arrays, mostly near background
Construct (chain): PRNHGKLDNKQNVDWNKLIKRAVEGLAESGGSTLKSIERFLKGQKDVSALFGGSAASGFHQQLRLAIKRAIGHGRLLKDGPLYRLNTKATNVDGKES
With `GCCAAGAC` the E-score was -0.0368.
The E-score of `ACTTACCG` is reported as 0.00298.
`CGGCTCAA` has an E-score of 0.171.
With `CGAGTGTC` the E-score was 0.0267.
With `ATTTGTTG` the E-score was -0.0529.
The E-score of `AGTAGCGG` is reported as 0.159.
For `GTGCTACA`, the E-score was -0.15.
`AACACGTA` has an E-score of -0.0498.

Block 3 — method: competition protein-binding microarray; molecule type: double-stranded DNA, one strand shown; medium: in vitro; concentration: 2 µM; together with: Cbf1 competitor, 0.05 µM; direction: higher = stronger binding; shared flanks, not repeated: … GTCTTGATTCGCTTGACGCTGCTG
Target: Phosphate system positive regulatory protein PHO4, full length, GST-tagged (PHO4, Saccharomyces cerevisiae, UniProt P07270, residues 1-312)
Setting: whole 60-bp probe, lowest competitor level
Residues (chain): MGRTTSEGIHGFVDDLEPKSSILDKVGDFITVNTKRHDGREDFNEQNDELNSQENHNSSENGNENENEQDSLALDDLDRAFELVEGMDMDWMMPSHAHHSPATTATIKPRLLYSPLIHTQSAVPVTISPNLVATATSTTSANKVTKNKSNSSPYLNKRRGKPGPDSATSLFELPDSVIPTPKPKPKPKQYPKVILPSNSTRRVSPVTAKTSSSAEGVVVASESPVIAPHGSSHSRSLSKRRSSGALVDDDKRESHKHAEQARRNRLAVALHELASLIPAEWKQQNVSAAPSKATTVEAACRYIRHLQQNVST
`CTAACGAAGGTTTGCCAGGTGGGTGACAAGCCAAGT` gave a fluorescence intensity of 5090 a.u.
`TGCGCAACAACTTGAGGAGTGGGTGTATGTCTAGAA` has a fluorescence intensity of 5030 a.u.
`CATACCCAACCTTGTTGTGTGGGTGAAGATATTTGT` gave a fluorescence intensity of 4910 a.u.
With `GTCTTGTCTCATTTTCACGTGTTCTTCCCCACTTCA` the fluorescence intensity was 12900 a.u.
For `GTCTTGTCTCATTGCGTAGTGGGTGTCCCCACTTCA`, the fluorescence intensity was 4420 a.u.
With `ACAAGGAAGGTATCCCACCTGACGAACAAAGATTGA` the fluorescence intensity was 4760 a.u.
`GTCTTGTCTCATTGTATCGTGGGTGTCCCCACTTCA` gave a fluorescence intensity of 7780 a.u.

Block 4 — method: protein-binding microarray; molecule type: double-stranded DNA, one strand shown; medium: in vitro; concentration: 2200 nM top; setting: 60-bp whole probe; together with: salmon DNA 0.4 mg/ml; reference: random background probes; direction: higher = stronger binding; shared flanks, not repeated: GCCTAGCAC … GTCTTGATTCGCTTGACGCTGCTG
Target: Interferon regulatory factor 7, full length, phosphomimetic (IRF7, Homo sapiens, UniProt Q92985, residues 1-503, S471D/S472D/S475D/S476D/S477D/S483D/S484D/S487D)
Sequence of UniProt Q92985 (whole entry, unmodified, looked up): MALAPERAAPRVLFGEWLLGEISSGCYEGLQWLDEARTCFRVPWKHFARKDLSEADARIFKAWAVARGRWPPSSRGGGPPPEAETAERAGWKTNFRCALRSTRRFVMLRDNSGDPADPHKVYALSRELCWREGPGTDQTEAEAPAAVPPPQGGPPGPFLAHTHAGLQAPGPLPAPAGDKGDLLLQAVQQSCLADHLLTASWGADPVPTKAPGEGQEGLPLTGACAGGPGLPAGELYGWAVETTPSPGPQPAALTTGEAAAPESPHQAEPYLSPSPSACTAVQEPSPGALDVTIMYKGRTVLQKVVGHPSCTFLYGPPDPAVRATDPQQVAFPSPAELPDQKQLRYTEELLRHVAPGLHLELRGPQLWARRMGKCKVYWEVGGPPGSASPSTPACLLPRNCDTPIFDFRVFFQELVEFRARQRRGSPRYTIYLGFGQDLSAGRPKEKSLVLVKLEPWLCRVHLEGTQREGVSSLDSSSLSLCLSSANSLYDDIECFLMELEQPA
`GACGTTATCGGTATCGGGACGTGCTAG`: “fitted relative affinity” 0.753 z-score.
`TTAGATCTCAGTTTCGGTTAGTGCTAG`: “fitted relative affinity” 7.35 z-score.
For `TCATTTTTCATTTTTTTACTGTGCTAG`, “fitted relative affinity” read 3.39 z-score.
For `TTAGGTTTCGGACTGGGTTAGTGCTAG`, “fitted relative affinity” read 3.15 z-score.
Under “fitted relative affinity”, `TTAGGTTTCATTTTCCTTTAGTGCTAG` is recorded as 7.08 z-score.
Under “fitted relative affinity”, `GACGATTTCGGGACTGGAGCCGTGCTA` is recorded as 1.13 z-score.
`TTAGGTCTCCTAATCCTTTAGTGCTAG`: “fitted relative affinity” 0.501 z-score.

Some of these lines once more (block 1):
PhoP, residues 12 14 15 18 19 TQALL (Escherichia coli, UniProt P23836) — fold induction: 17.2.
PhoP, residues 12 14 15 18 19 QYFSL (Escherichia coli, UniProt P23836) — fold induction: 3.59.
It gave 2.09 for fold induction (PhoP, residues 12 14 15 18 19 NYFRM (Escherichia coli, UniProt P23836)).
